Results collected from several papers.
Protocols differ between the studies behind these lines.
Target: Mitogen-activated protein kinase 4 (MAPK4, Homo sapiens, UniProt P31152)

SMILES | test | setting | how to read | measurement | value
COc1cc(Nc2nc(C)cc(-c3cnn4nc(OC)ccc34)n2)cc(C(F)(F)F)c1 | inhibitor | 1 µM, ERK4 | baseline: control | remaining activity | 100%
Cc1ccc(-c2c(/C=C(\C#N)C(=O)NC(C)C)n(CCCO)c3ncnc(N)c23)cc1 | cell-free assay, competition with immobilised ligand | 1 µM |  | remaining binding | 90%
Nc1ncc2c(n1)-c1c([nH]c3ccc(C4=CCOCC4)cc13)CCC2 | binding, competition with immobilised ligand | 1 µM |  | remaining binding | 100%
CC(C)=CC1OC(C)(C)C2C=C3C(=O)C(Cl)=CC(O)C3C3C(O)C4OC4C(=O)C132 (stereo not drawn) | cell-free assay, competition with immobilised ligand | 10 µM |  | remaining binding | 77%
CNC(=O)C1CCN(c2cc(C)c(F)cc2NC(=O)c2ccc(-c3cc(O)ccc3C)c(C)c2)CC1 | binding, competition with immobilised ligand | 1 µM |  | remaining binding | 99%
Cc1cnc2nc1Nc1cccc(c1)COC/C=C/COCc1cc(ccc1OCCN1CCOCC1)N2 | binding, competition with immobilised ligand | 0.1 µM |  | remaining binding | 100%
C=CC(=O)N1CCCC(n2c(=O)c3ncccc3n(Cc3ccc(Oc4ccccc4)cc3)c2=O)C1 (stereo not drawn) | cell-free assay, competition with immobilised ligand | 1 µM |  | remaining binding | 99%
COc1cc(Nc2nccc(-c3cnn4nc(OC)ccc34)n2)cc(C(F)(F)F)c1 | binding, competition with immobilised ligand | 1 µM |  | remaining binding | 88%
CCN1CCN(Cc2ccc(C(=O)Nc3ccc(C)c(NCc4cnc5[nH]ccc5c4OC)c3)cc2C(F)(F)F)CC1 | binding, competition with immobilised ligand | 1 µM |  | remaining binding | 100%
C=CC(=O)N1CCc2ccc(-n3c(=O)ccc4cnc5ccc(-c6cnn(C)c6)cc5c43)cc21 | KINOMEscan | 1 µM | baseline: DMSO control | remaining binding | 100%
COc1c(Cl)cccc1Nc1c(-c2ccncc2C#C[C@@]2(C)CCCN2C(=O)/C=C/CN(C)C)[nH]c2c1C(=O)NCC2 | binding, competition with immobilised ligand | 3 µM |  | remaining binding | 100%
CNC1C[S+]2CC[S+]3CC[S+](C1)[Ru-4]321([N]=C=S)[n]2c3ccc(OC)cc3c3c4c(c5cc(F)c[n+]1c5c32)C(=O)NC4=O (stereo not drawn) | KinomeScan | 0.1 µM | baseline: untreated | remaining binding | 86%

Some of these lines once more:
SMILES | test | setting | how to read | measurement | value
COc1cc(Nc2nc(C)cc(-c3cnn4nc(OC)ccc34)n2)cc(C(F)(F)F)c1 | inhibitor | 1 µM, ERK4 | baseline: control | remaining activity | 100%
Cc1ccc(-c2c(/C=C(\C#N)C(=O)NC(C)C)n(CCCO)c3ncnc(N)c23)cc1 | cell-free assay, competition with immobilised ligand | 1 µM |  | remaining binding | 90%
